# Assay results pooled from the literature.
# Values joined by “and” are separate records of one study, mostly repeats; a detail may differ. ± marks the error that the study gave.
SMILES,cell line,assay,setting,how to read,endpoint,value
C#CCNC(=O)c1ccc(S(=O)(=O)N[C@@H](CCCCNC(C)=S)C(=O)N[C@@H](CCCNC(=N)N)C(=O)N[C@@H](CC2CCCCC2)C(=O)N[C@H](CCCCN)C(=O)N[C@@H](CC2CCCCC2)C(N)=O)cc1,HEK-293T,"cell growth or viability, MTT",72 h,,EC50,55.5 µM
CC(C)(C)C(=O)OCOP(=O)(OCOC(=O)C(C)(C)C)C1CCCN(O)C1=O (centres unmarked),Hs-578T,,,,log GI50,-6.5 log M
CCOC(=O)C1(Cc2ccccc2)Oc2cc(F)ccc2N(Cc2ccccc2)C1=O (centres unmarked),L02,"cell growth or viability, CCK-8","1.56 µM, 72 h",,inhibition,0.05%
COc1ccccc1-c1ccncc1C(=O)Nc1nnc(OCc2ccc(Cl)cc2)s1,RPE-1 BRCA1 WT parental,,"0.125 µM, average of 2 runs",baseline: untreated,colony survival,92%
N#Cc1cccc(-c2ccc(=O)n(Cc3cccc(-c4ncc(OCC5CCN(CC(=O)N6CCN(c7ccc8c(c7)C(=O)N(C7CCC(=O)NC7=O)C8=O)CC6)CC5)cn4)c3)n2)c1 (centres unmarked),EBC-1,"label-free proteomics, refers to: DHX30",concentration not given,baseline: control,protein level fold change,-2.57
C=CCN1C(=O)C(CC=C)(C(=O)OCC)Oc2cc(F)ccc21 (centres unmarked),HaCaT,"cell growth or viability, CCK-8","1.56 µM, 72 h",,inhibition,0.23%
NC(=S)N/N=C/c1ccc(OCc2ccccc2)cc1,IMR-32,,"50 µg/mL, 24 h",higher = more activity,catalase activity (OD450),0.034 a.u.
COc1ccc(NC(=O)c2ccc3[nH]c(-c4ccc(N(C)C)cc4)nc3c2)cn1,HCT116,IncuCyte,"concentration not given, 16 (unit not given)",,PI-positive cells,85.5 count and 36.2 count and 58.5 count
CC(C)=CCc1c(O)cc2c(c1O)C(=O)CC(c1ccc(O)cc1)O2 (centres unmarked),HeLa,"cell growth or viability, MTT","6.25 µM, 48 h",,inhibition,10.4%
CC(=O)NCSC[C@H](NC(=O)[C@@H]1CCCN1C(=O)[C@H](C)NC(=O)[C@@H](NC(=O)CNC(=O)[C@@H](NC(=O)[C@H](Cc1c[nH]c2ccccc12)NC(=O)[C@H](C)NC(=O)CNC(=O)[C@H](CO)NC(=O)[C@H](C)NC(=O)[C@@H]1CCCN1C(=O)[C@H](Cc1c[nH]c2ccccc12)NC(=O)[C@H](C)NC(=O)[C@H](C)NC(=O)[C@@H](N)Cc1ccc(O)cc1)[C@@H](C)O)[C@@H](C)O)C(=O)N[C@@H](CO)C(=O)N[C@@H](C)C(=O)NCC(=O)N[C@H](C(=O)NCCOCCOCCOCCOCCOCCOCCOCCOCCOCCOCCOCCOCCC(=O)N[C@@H](CS)C(N)=O)[C@@H](C)O,H1819,phage binding,"10 min, 37 °C",baseline: control phage,selectivity ratio,8.6 ± 4.1
CC(C)C12OC1C1OC13C1(C)CCC4=C(COC4=O)C1CC1OC13C2OC(=O)CCCOC1OC(CO)C(O)C(O)C1O (centres unmarked),primary airway epithelial cells,"cell viability, XTT",47 h,,IC50,7.13 µM

# A few entries again:
SMILES,cell line,assay,setting,how to read,endpoint,value
CCOC(=O)C1(Cc2ccccc2)Oc2cc(F)ccc2N(Cc2ccccc2)C1=O (centres unmarked),L02,"cell growth or viability, CCK-8","1.56 µM, 72 h",,inhibition,0.05%
